Measurements from different studies.
Protocols differ between the studies behind these lines. ± marks the error that the study gave. ≈ marks a conversion by molar mass, not a printed value.

SMILES = C[C@@H](c1ccn(Cc2cc(F)c(F)c(F)c2)n1)[C@](O)(Cn1cnnn1)c1ccc(F)cc1F; organism = Candida tropicalis; assay = growth, broth microdilution; test system = 2718; setting = 24 h, 30 °C, ≥50% inhibition; endpoint = MIC; value = < 0.008 µg/mL
SMILES = CN(C)c1cc(CN2CCc3ccccc3C2)c(O)c2c1C[C@H]1C[C@H]3[C@H](N(C)C)C(O)=C(C(N)=O)C(=O)[C@@]3(O)C(O)=C1C2=O; organism = Streptococcus pneumoniae; test system = 157E; setting = with: mouse serum; how to read = relative to: no serum; endpoint = MIC increase; value = 5 dilutions
SMILES = CNC1=C([N+](=O)[O-])C2(C(=O)Nc3ccc([N+](=O)[O-])cc32)C2=C(CCCC2=O)O1 (stereo not shown); organism = Streptococcus pneumoniae; test system = MTCC 655; setting = 250 µg/mL, 24 h; endpoint = growth inhibition; value = 24.7%
SMILES = CC[C@H](C)[C@H](NC(=O)[C@H](CCCN)NC(=O)[C@H](CC(N)=O)NC(=O)[C@H](CC(C)C)NC(=O)[C@H](Cc1ccccc1)NC(=O)[C@H](CCCN)NC(=O)[C@H](CCCNC(=N)N)NC(=O)[C@H](CC(C)C)NC(=O)[C@H](CC(C)C)NC(=O)[C@H](CCCN)NC(=O)[C@H](CCCNC(=N)N)NC(=O)[C@H](CC(C)C)NC(=O)CNC(C)=O)C(=O)N[C@@H](CCCN)C(=O)N[C@@H](CCCNC(=N)N)C(N)=O; organism = all bacteria tested; endpoint = geometric mean MIC; value = 4.96 µM
SMILES = CC(C)C[C@H](NC(=O)[C@H](CCC(=O)O)NC(=O)[C@H](CC(=O)O)NC(=O)[C@H](C)NC(=O)[C@@H](N)Cc1c[nH]cn1)C(=O)N[C@H](C(=O)N[C@@H](C)C(=O)NCC(=O)N[C@H](C(=O)N[C@@H](CCCCN)C(=O)N[C@@H](CCC(N)=O)C(N)=O)C(C)C)C(C)C; organism = Gram-negative bacteria; setting = concentration not given; endpoint = antibacterial activity; value = inactive
SMILES = Cc1ccc2nc(-c3ccc(Cl)cc3)c(CN3CCN(c4ccc(F)cc4)CC3)n2c1; organism = Trypanosoma cruzi; test system = 3T3 host cells, Tulahuen beta-galactosidase; setting = 6 days; endpoint = EC50; value = 1.1 µM
SMILES = NC(=O)c1ccc(-c2cn([C@@H]3O[C@H](CO)[C@@H](O)[C@H]3O)c3ncnc(N)c23)cc1; organism = Trichomonas vaginalis; assay = resorufin; test system = G3, metronidazole-sensitive; setting = 24 h + 2 h, 2% O2; endpoint = EC50; value = 27.4 ± 0.49 µM
SMILES = C=C(C)[C@@H]1CC[C@]2(C(=O)N3CCN(C)CC3)CC[C@]3(C)[C@H](CC[C@@H]4[C@@]5(C)CCCNC(C)(C)[C@@H]5CC[C@]43C)[C@@H]12; organism = Human cytomegalovirus; assay = cytopathic effect; test system = HFF, AD169; endpoint = EC90; value = > 30 µM
SMILES = CN(C)c1cc(CNCC2CCCCC2)c(O)c2c1C[C@H]1C[C@H]3[C@H](N(C)C)C(O)=C(C(N)=O)C(=O)[C@@]3(O)C(O)=C1C2=O; organism = Streptococcus pneumoniae; assay = microbial growth, broth dilution; endpoint = MIC; value = < 0.06 µg/mL
SMILES = CCCCn1ccc([C@H](C)[C@](O)(Cn2cnnn2)c2ccc(F)cc2F)n1; organism = Candida tropicalis; assay = growth, broth microdilution; test system = 2718; setting = 24 h, 30 °C, ≥50% inhibition; endpoint = MIC; value = 0.0313 µg/mL (≈ 0.0832 µM)
SMILES = COc1ccc(C2OC(=O)c3ccc(-c4ccccc4)c(O)c32)c(OC)c1OC (stereo not shown); organism = Naegleria fowleri; assay = parasite growth, resazurin; test system = ATCC30808; setting = 48 h; endpoint = IC90; value = 103 µM
SMILES = CN(C)c1cc(CN)c(O)c2c1C[C@H]1C[C@H]3[C@H](N(C)C)C(O)=C(C(N)=O)C(=O)[C@@]3(O)C(O)=C1C2=O; organism = Streptococcus pneumoniae; assay = microbial growth, broth dilution; endpoint = MIC; value = 2 µg/mL (≈ 4.11 µM)
SMILES = Cc1ccc2nc(-c3ccccc3)c(CN3CCCC3)n2c1; organism = Trypanosoma cruzi; test system = 3T3 host cells, Tulahuen beta-galactosidase; setting = 6 days; endpoint = EC50; value = > 20 µM
SMILES = CC1(CCCCCCCCCCCCOCCCOP(=O)(O)CO[C@H](CO)Cn2ccc(N)nc2=O)COC1; organism = JC polyomavirus; assay = qPCR; test system = COS-7, MAD-4; how to read = relative to: CC50 over EC50; endpoint = selectivity index; value = > 6
SMILES = COc1ccc(Nc2c(C#N)cnc3ccc(Cl)cc23)cc1; organism = Trypanosoma cruzi; assay = parasite viability, resazurin; test system = Y, trypomastigotes; setting = 24 h, heme-free medium; endpoint = IC50; value = > 100 µM
SMILES = c1ccc(-c2nc(-c3ccc4ccccc4c3)c[nH]2)cc1; organism = Schistosoma mansoni; test system = mature male and female worms; setting = 50 µM, 96 h; endpoint = worm killing; value = 0%

A few entries again:
SMILES = CNC1=C([N+](=O)[O-])C2(C(=O)Nc3ccc([N+](=O)[O-])cc32)C2=C(CCCC2=O)O1 (stereo not shown); organism = Streptococcus pneumoniae; test system = MTCC 655; setting = 250 µg/mL, 24 h; endpoint = growth inhibition; value = 24.7%
